Results from different studies.
Parts stem from different laboratories: compare values within a part only. Positions count from the first letter of the parent shown.

Study 1
Target: Histone acetyltransferase KAT6A, both winged helices, GST fusion (KAT6A, Homo sapiens, UniProt Q92794, residues 1-181)
Technique: protein binding microarray
Form: double-stranded DNA, one strand shown
Matrix: in vitro
Tested at: not given
Setting: 8-mer, flanks averaged, mean of 2 arrays, mostly near background
Relative to: not given
Reading: higher = stronger binding
Construct (chain): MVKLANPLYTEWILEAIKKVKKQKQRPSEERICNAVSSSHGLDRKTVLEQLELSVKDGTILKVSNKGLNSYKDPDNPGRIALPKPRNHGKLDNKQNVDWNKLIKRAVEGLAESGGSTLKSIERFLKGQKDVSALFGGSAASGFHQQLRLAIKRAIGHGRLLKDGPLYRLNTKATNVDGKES
Sequence | E-score
ACACCTGT | -0.0602
AATAGCGC | 0.231
CGTCCTCA | 0.111
GACCAAAA | 0.0612
ACCTGCCT | -0.217
TTAAACAA | -0.153
ACAAGTAT | -0.0608
CTCCAAGA | -0.207
AACGTTGC | -0.00779
GCCGTCCC | 0.223
GACTGCGA | -0.0314
ATGACACC | -0.0376
AACAAAAC | -0.0552
CGAACTGC | 0.0364
ACCCGTAG | 0.173
AACAATGT | -0.093
AGGTGGGG | -0.262
ACTCACAC | -0.107
ATCAAACG | 0.141

Study 2
Target: CREB3L1, bZIP domain (human)
Technique: DHFR protein complementation
Matrix: yeast
Setting: single substitutions, most at no-binding floor
Relative to: wild-type JUN-FOS pair
Reading: higher = stronger binding
Starting sequence: JUN, bZIP domain (human); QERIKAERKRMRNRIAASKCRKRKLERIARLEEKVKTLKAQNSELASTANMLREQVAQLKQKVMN; partner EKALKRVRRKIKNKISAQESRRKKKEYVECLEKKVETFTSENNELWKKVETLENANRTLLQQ
Substitution | binding fitness
L31H | -1.31 natural log
L31F | -1.44 natural log
S43L | -1.35 natural log
E44T | -1.42 natural log
A29D | -1.33 natural log
L45M | -1.57 natural log
Q58S | -1.39 natural log
K36I | -1.4 natural log
L38K | -1.44 natural log
L38F | -1.44 natural log
S43E | -1.45 natural log
A46K | -1.25 natural log
M51D | -1.25 natural log
E54I | -1.2 natural log

Study 3
Cell line: yeast with cyclin D2-Cln2 chimera
Effect on: cell growth
Action: binder
Technique: competitive growth deep sequencing
Form: peptide
Tested at: concentration not given
Setting: peptide tiling library
Reading: direction not given
Sequence | growth enrichment score
PQWPCGKHKRVLIFAS | -0.6
VLVRTSACRSLFGPVD | 0.357
DGCSPIKNWSPMRL | 0.659
KDDDKAWEYEERDRRS | 0.488
QNPCGSKACRRLFGPV | 0.238
VRDLSYRLVFLACCVA | -1.34
RNRGPKLNAMLRLGVL | -1.43
TRRRLFVENDSP | -0.657
NFETPEAETPIRSPFK | -1.26
VLPGGVPSPGASLTSM | 0.778
AEHPKPSACRNLFGPV | 0.18
TSPGPVLLHPSPSTTQ | 0.563
SGYLTDENEVGFRG | 0.127

Study 4
Target: ABI1, truncated, D143A, DHFR fusion (Arabidopsis thaliana)
Technique: DHFR PCA, deep sequencing
Matrix: yeast
Setting: methotrexate growth selection, single substitutions
Added: (+)-ABA 200 µM
Relative to: wild-type fitted maximum
Reading: higher = stronger binding
Starting sequence: PYL1, truncated, DHFR fusion (Arabidopsis thaliana); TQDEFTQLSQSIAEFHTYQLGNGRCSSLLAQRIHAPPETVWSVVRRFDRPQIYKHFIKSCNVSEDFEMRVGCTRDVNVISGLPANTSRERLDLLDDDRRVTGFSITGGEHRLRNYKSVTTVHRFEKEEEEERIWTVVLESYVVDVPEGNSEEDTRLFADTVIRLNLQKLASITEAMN; partner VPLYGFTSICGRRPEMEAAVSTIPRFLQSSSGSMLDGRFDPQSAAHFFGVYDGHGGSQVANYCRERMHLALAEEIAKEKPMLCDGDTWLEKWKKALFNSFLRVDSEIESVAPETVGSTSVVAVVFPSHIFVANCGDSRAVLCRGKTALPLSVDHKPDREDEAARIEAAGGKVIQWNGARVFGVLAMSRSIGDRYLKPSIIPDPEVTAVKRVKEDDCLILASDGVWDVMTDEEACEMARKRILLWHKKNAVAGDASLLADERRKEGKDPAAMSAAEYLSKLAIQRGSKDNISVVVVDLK
Substitution | relative binding score
P37L | 81%
E151K | 96.5%
I79Q | 96.8%
V44D | -17.9%
S42C | 91.4%
L93W | 86%
K126N | 106%
K168N | 101%
W134E | 111%
E14M | 92.5%
L91F | 24.7%
K168V | 87.9%
I57K | -3.11%
Q7D | 97.1%
D48A | 65.8%
L94N | 39.8%
A175S | 100%
L164V | 101%
V43P | -31.9%

Study 5
Target: RNA binding protein fox-1 homolog 2, RRM domain, GST-SBP tag (RBFOX2, Homo sapiens, UniProt O43251-10, residues 100-194)
Technique: RNA Bind-n-Seq
Form: RNA
Matrix: in vitro
Tested at: 365 nM
Setting: natural RNA segment, single round, ends assumed
Relative to: no-protein control
Reading: higher = stronger binding
Residues (chain): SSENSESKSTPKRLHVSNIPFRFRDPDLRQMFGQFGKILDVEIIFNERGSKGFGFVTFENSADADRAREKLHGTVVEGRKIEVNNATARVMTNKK
Sequence | RBNS enrichment (R)
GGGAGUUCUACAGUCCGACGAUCUGGGCUCUGUUUAGGAGGGCAGUGAGACCACCCAGCCAAAUUGCUUCUCAACCCUAGACAAAGCCUUUGGCCAAGAGGGAGGUGCUGUUAGUUGGGCAGCCCUUCUGGGUUGGAAUUCUCGGGUGCCAA | 0.406
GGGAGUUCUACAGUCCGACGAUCUCAUUCAAAAAGGCUUCCAAGGCCAAUUCUGUCUUGAAGUCAAUGCAUGUAUUUACUGUUUGACAGUAAACCCGCUCUGCCUUCUCCACGUCCAAGGCUGUGCAUUCGUCUGGAAUUCUCGGGUGCCAA | 1.21
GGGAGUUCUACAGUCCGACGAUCUUCUGGAGAGGUUAUUUCUGCAUGGAAACUCAACUUCUUGGAUUAGCUAUCUUGAGUGAAAGUCCUCACUGACGAGUAUGCAAACCAAAUAGCCUCCUGCACAGUAGCCUUGGAAUUCUCGGGUGCCAA | 0.597
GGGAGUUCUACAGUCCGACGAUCAAUCUGUGGAUUAUGUUCCUGAUCAUUUGCAGUUAAGGAAUUUAAAUAAAUCACAUGUUAACGACAAGAAUUUCUGUUUUUCUCUUUCACUUAAAAUCCAAACUAGAUCUUGGAAUUCUCGGGUGCCAA | 0.579
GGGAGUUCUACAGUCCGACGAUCCAAAAGUCCCCAAUGACAGGAACAAAAGCAACCAAUUUUUAACUUUCUCUUCUCAUUCCUGUUUUCAUUGAUUUCCCACAUGUAGUCCUUUUGCUCAGGAAGUCUUUGGGUGGAAUUCUCGGGUGCCAA | 0.661
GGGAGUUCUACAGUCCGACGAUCGAAAAUUGUAACCAAAUUCAUACUUUGUAUAAUUUUUGAUAUCAUGAUCACAGGUGAUUCACACGUACACACAUAAACACACCCACCAGUGCAGCCUGAAGUAACUCCCAUGGAAUUCUCGGGUGCCAA | 0.357
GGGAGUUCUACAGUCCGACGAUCUAGAUAAUGUGUAUCCUAAUAAAAUUGUUCUGCUUGUAUAUGAAAUAUUAAUAUCUACCAACACAUAGACUUCCUAAAAUCGAUAUAUUGCUUGAAUCACACUUUUACUGUGGAAUUCUCGGGUGCCAA | 1.99
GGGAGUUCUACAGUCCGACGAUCUCCCCUCUGACAGACCGAUAGCUGCAUCAGGCUGUUGGGUGGAAUGGGAGGCAAGGGAAUAGGAAAGCCAAAGGCCAAGCAGGAACUCUGUGCCUGCUCUCUGCUCCUGUUGGAAUUCUCGGGUGCCAA | 0.407
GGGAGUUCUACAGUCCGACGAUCUGAAGCAUUGUGGGUACUACCCGUGUCCCAUGUUCACAGUAACAAAUUCACAUGCAGGAUUUACUUUAUACUGUAGAAUACUGACUUUCAUGAUGACAACUUGAUUUAUGUGGAAUUCUCGGGUGCCAA | 0.379
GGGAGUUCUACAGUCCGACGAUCGGCUAACUUUCACAAAACUGUCUUGCCUCUUUUAAACAUUACACUUGAUACGAGAAAUAUGGCUUAAGAACACAUGAUGUCUCAGAAGGCCCAUGCGCACACCAGACCGCUGGAAUUCUCGGGUGCCAA | 0.448
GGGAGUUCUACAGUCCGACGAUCAGAUUUUAGGUAGGAGGGGAGCAGAGGAAUUAUGAACUGGGGUAAACCCAUUUUGAAUAUUAGCAUUGCCAAUAUCCUGUAUUCUUGUUUUACAUUUGGAUUAGAAAUUUUGGAAUUCUCGGGUGCCAA | 0.61
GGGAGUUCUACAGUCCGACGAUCAGUGUUCUCUUCGAGCAAAGUAGACCUGGGUCACUGUAGGCAUAGGACUUGGAUUGCUUCAGAUGGUUUGCUGUAUCAUUUUUCUUCUUUUUCUUUUCCUGGGGACUUGUUGGAAUUCUCGGGUGCCAA | 1.04

Study 6
Target: PABPC1L2, full length, GST fusion (mouse, UniProt A0ABA7IW68)
Technique: RNAcompete
Form: RNA
Matrix: in vitro
Tested at: 20 nM
Setting: 7-mer, probes averaged, single round
Relative to: mean of 7-mers
Reading: higher = stronger binding
Construct (chain): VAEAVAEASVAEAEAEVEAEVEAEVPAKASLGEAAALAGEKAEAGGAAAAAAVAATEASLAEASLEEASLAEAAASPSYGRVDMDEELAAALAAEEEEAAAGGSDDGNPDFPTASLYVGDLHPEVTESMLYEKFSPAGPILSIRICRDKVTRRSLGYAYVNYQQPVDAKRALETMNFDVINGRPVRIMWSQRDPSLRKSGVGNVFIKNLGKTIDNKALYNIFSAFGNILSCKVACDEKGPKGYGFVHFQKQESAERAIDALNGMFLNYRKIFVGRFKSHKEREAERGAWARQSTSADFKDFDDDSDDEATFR
Sequence | 7-mer Z-score
UCUCGCA | -0.237
CCCAUAA | 0.0932
AAGACCG | 0.117
UACGCUU | -0.311
UUCGCUC | -0.434
UCAUCCC | -0.432
AUUAGCA | -0.00833
CGAUCGC | -0.242
CCUCGCU | -0.452
AUUGAAG | -0.00289
UAUUGUU | -0.327
CUUGUAC | -0.338
ACUGCUG | -0.108
CGCUUAA | -0.18
CGUACCU | -0.295
CCUUCUA | -0.409
CUUAAUU | -0.215
AUUAUCA | -0.0772
CGCGCCC | -0.385
ACUGUCC | -0.233
AUCGACA | 0.0116
CUGCGGU | -0.137
GGUGUCA | -0.0681
AGUGACC | -0.0174
UUCGAGU | -0.431

Further values, each from its own experiment
Substance | target | assay | system | conditions | scale | endpoint | result
PhoQ, residues 284 288 289 292 302 303 SMYGEC | PhoP, residues 12 14 15 18 19 SMASL (Escherichia coli, UniProt P23836) | Sort-seq, item: YFP reporter | E. coli | PhoQ-PhoP variant library, added: 10 µM Mg2+ | relative to: high Mg2+ state, higher = stronger signaling | fold induction | 5.83

Repeated from above (study 1):
Sequence | E-score
CGTCCTCA | 0.111
GACCAAAA | 0.0612
ACCTGCCT | -0.217
TTAAACAA | -0.153
ACAAGTAT | -0.0608
CTCCAAGA | -0.207
AACGTTGC | -0.00779
GCCGTCCC | 0.223
GACTGCGA | -0.0314
ATGACACC | -0.0376
AACAAAAC | -0.0552
CGAACTGC | 0.0364
ACCCGTAG | 0.173
AACAATGT | -0.093
AGGTGGGG | -0.262
ACTCACAC | -0.107
